# Literature values as cited in several papers.
# Lines come from different studies, so protocols differ.
Compound,system,conditions,half-life
O=C(O)C(F)(F)C(F)(F)C(F)(F)C(F)(F)C(F)(F)C(F)(F)F,human,,1680 h
Cc1ncc2n1-c1ccc(Cl)cc1C(c1ccccc1F)=NC2,human,,1.5 to 2.5 h
COC(=O)[C@H](c1ccccc1)[C@H]1CCCCN1,"human, CES1 wild type, plasma","oral, 10 mg methylphenidate, single dose, median",2.6 h
O=C(O)C(F)(F)C(F)(F)C(F)(F)C(F)(F)C(F)(F)C(F)(F)C(F)(F)C(F)(F)C(F)(F)F,human,,60000 h
O=C(O)[C@H](c1ccccc1)[C@H]1CCCCN1,"human, CES1 wild type, plasma","oral, 10 mg methylphenidate, single dose, median",8.6 h
COc1c(OCCCN2CCOCC2)ccc2c1N=C(NC(=O)c1cnc(N)nc1)N1CCN=C21,human,"dose not given, at MTD",~38 h
CC(C(=O)O)c1ccc(-c2ccccc2)c(F)c1 (stereo not drawn),human,,3 to 4 h
Clc1cc2c(cc1Cl)Oc1cc(Cl)c(Cl)cc1O2,human,,7.2 to 8.7 years
O=S(=O)(O)C(F)(F)C(F)(F)C(F)(F)C(F)(F)F,human,,624 h

# Repeated from above:
Compound,system,conditions,half-life
COc1c(OCCCN2CCOCC2)ccc2c1N=C(NC(=O)c1cnc(N)nc1)N1CCN=C21,human,"dose not given, at MTD",~38 h
